Results from different studies.
Method: steady-state kinetics
B1: LigI D246A (Sphingobium sp. SYK-6, UniProt O87170); chain TNDERILSWNETPSKPRYTPPPGAIDAHCHVFGPMAQFPFSPKAKYLPRDAGPDMLFALRDHLGFARNVIVQASCHGTDNAATLDAIARAQGKARGIAVVDPAIDEAELAALHEGGMRGIRFNFLKRLVDDAPKDKFLEVAGRLPAGWHVVIYFEADILEELRPFMDAIPVPIVIDHMGRPDVRQGPDGADMKAFRRLLDSREDIWFKATCPDRLDPAGPPWDDFARSVAPLVADYADRVIWGTAWPHPNMQDAIPDDGLVVDMIPRIAPTPELQHKMLVTNPMRLYWSEEM
B2: KS T527V/T528V (Arabidopsis thaliana, UniProt Q9SAK2); chain ANNVSFEQTKEKIRKMLEKVELSVSAYDTSWVAMVPSPSSQNAPLFPQCVKWLLDNQHEDGSWGLDNHDHQSLKKDVLSSTLASILALKKWGIGERQINKGLQFIELNSALVTDETIQKPTGFDIIFPGMIKYARDLNLTIPLGSEVVDDMIRKRDLDLKCDSEKFSKGREAYLAYVLEGTRNLKDWDLIVKYQRKNGSLFDSPATTAAAFTQFGNDGCLRYLCSLLQKFEAAVPSVYPFDQYARLSIIVTLESLGIDRDFKTEIKSILDETYRYWLRGDEEICLDLATCALAFRLLLAHGYDVSYDPLKPFAEESGFSDTLEGYVKNTFSVLELFKAAQSYPHESALKKQCCWTKQYLEMELSSWVKTSVRDKYLKKEVEDALAFPSYASLERSDHRRKILNGSAVENTRVTKTSYRLHNICTSDILKLAVDDFNFCQSIHREEMERLDRWIVENRLQELKFARQKLAYCYFSGAATLFSPELSDARISWAKGGVLVVVVDDFFDVGGSKEELENLIHLVEKWDLNGVPEYSSEHVEIIFSVLRDTILETGDKAFTYQGRNVTHHIVKIWLDLLKSMLREAEWSSDKSTPSLEDYMENAYISFALGPIVLPATYLIGPPLPEKTVDSHQYNQLYKLVSTMGRLLNDIQGFKRESAEGKLNAVSLHMKHERDNRSKEVIIESMKGLAERKREELHKLVLEEKGSVVPRECKEAFLKMSKVLNLFYRKDDGFTSNDLMSLVKSVIYEPVSLQEESLT
B3: LYS12 D271N (Saccharomyces cerevisiae, UniProt P40495); chain SLTIGLIPGDGIGKEVIPAGKQVLENLNSKHGLSFNFIDLYAGFQTFQETGKALPDETVKVLKEQCQGALFGAVQSPTTKVEGYSSPIVALRREMGLFANVRPVKSVEGEKGKPIDMVIVRENTEDLYIKIEKTYIDKATGTRVADATKRISEIATRRIATIALDIALKRLQTRGQATLTVTHKSNVLSQSDGLFREICKEVYESNKDKYGQIKYNEQIVDSMVYRLFREPQCFDVIVAPNLYGDILSNGAAALVGSLGVVPSANVGPEIVIGEPCHGSAPDIAGKGIANPIATIRSTALMLEFLGHNEAAQDIYKAVDANLREGSIKTPDLGGKASTQQVVDDVLSRL
B4: ABHD14B (Homo sapiens, UniProt Q96IU4); chain MAASVEQREGTIQVQGQALFFREALPGSGQARFSVLLLHGIRFSSETWQNLGTLHRLAQAGYRAVAIDLPGLGHSKEAAAPAPIGELAPGSFLAAVVDALELGPPVVISPSLSGMYSLPFLTAPGSQLPGFVPVAPICTDKINAANYASVKTPALIVYGDQDPMGQTSFEHLKQLPNHRVLIMKGAGHPCYLDKPEEWHTGLLDFLQGLQ
B5: BshA (Bacillus subtilis, UniProt P42982); chain MRKLKIGITCYPSVGGSGIIATELGKQLAEKGHEIHFITSSIPFRLNTYHPNIHFHEVEVNQYAVFKYPPYDLTLASKIAEVAERENLDIIHAHYALPHAVCAYLAKQMLKRNIGIVTTLHGTDITVLGYDPSLKDLIRFAIESSDRVTAVSSALAAETYDLIKPEKKIETIYNFIDERVYLKKNTAAIKEKHGILPDEKVVIHVSNFRKVKRVQDVIRVFRNIAGKTKAKLLLVGDGPEKSTACELIRKYGLEDQVLMLGNQDRVEDLYSISDLKLLLSEKESFGLVLLEAMACGVPCIGTNIGGIPEVIKNNVSGFLVDVGDVTAATARAMSILEDEQLSNRFTKAAIEMLENEFSSKKIVSQYEQIYADLAEPE
B6: enzyme (Comamonas testosteroni, UniProt B7WQT1); chain MMTHEENELLCRVEGDAPMGRLMRRHWTPICLVEEVGEPDGTPVKARAFGEDLVVFRDSEGRVGVMDEYCPHRRASLVYGRNEEGGLRCLYHGWKMDVDGNVLEMASEPAASGMVDKVKHTAYPTQEWAGMVWAYMGPKETMPEFLPPAWAPTADTRVSIAKVLLPCNWAQILEGAIDSAHSSSLHSSDMVPARVDGAKATDKTWLRPSTDKAPRMQVQRTGYGFRYAALRRPLSNAAENDYVRSTVFVAPATALIPPNNLYNVANINVPMDDTNTAFYFIAWGHPSQTPETETWRKFLRQTVGVDLDQNYRPLRNEANKFWQDRNAMKAGNFTGITGFPNQDVAMWLTMGPIADRTHDRLGASDLAIVEFRKQMLDAVKAFEQGAPAIGTGVEAATPTVCSFQAIVPKTTDWRTYDAHYVWLDGQDRPEFEPSYSVKS
B7: protein (UniProt A0A4Y6I1D9); chain MTLDEKPRKFDGLDIEGVAFAASVTALGAAKPLALGGAGDRGLEINGNYIKFTAIGIYVEDGIIPHLSPKLRGKTVEELCEKELLFEEVISAPFEKLVRVVFLVPLTGIQYSEKVLERISVQSLFTDIKEEHKQQFLEIFKGESFPPRSSVILSFSKEGLKVAFAKGDDVPSKAVGTIEDATFADAVLATIIWKEGVSPAAKVSLAERLSKCL
B8: MCAT R178G (Homo sapiens, UniProt Q8IVS2); chain GQGSQVVGMGRGLLNYPRVRELYAAARRVLGYDLLELSLHGPQETLDRTVHCQPAIFVASLAAVEKLHHLQPSVIENCVAAAGFSVGEFAALVFAGAMEFAEGLYAVKIGAEAMQEASEAVPSGMLSVLGQPQSKFNFACLEAREHCKSLGIENPVCEVSNYLFPDCRVISGHQEALRFLQKNSSKFHFRRTRMLPVSGAFHTRLMEPAVEPLTQALKAVDIKKPLVSVYSNVHAHRYRHPGHIHKLLAQQLVSPVKWEQTMHAIYERKKGRGFPQTFEVGPGRQLGAILKSCNMQAWKSYSAVDVL
B9: protein (UniProt M4ZR24); chain MNEIGTTWAEGTSERVIRLLTDKRAGRPMSGPDIEGLVKDFTAGSVPDYQMASWLATVACAGLSAEELTALTAAYVDSGERLSLSSSRRPVADKHSTGGVGDKTTLVVAPVVAACGIGVGKVTGRGLGFMGGTVDKLESIPGLDLELSGSALSAQVADLGLAVTGQSPSLVPGDRMTYALRDVTGTVDSIPLIAASIMSKNTKGIAVRCNSIVLDVKYGDGAVLPDRAVATELARTMLELGRSFDLPTTAVISSMEQPLGYAVGNGLEVREAIIALSGTYVEDLTELAITISALMISTADSAVDHDRARDRVREVLSDGSALRMFRAFVARQGGDVGFVDDPSRLETAPHRLVVTATEAGHVARIAARRIGEAALRVGAGRLVYGAPIDHGAGIVLSRRIGDSVAEGEPLATLHGSDYDQLESLADVVRGCFDISERPPGRPDVIVDVLRQGDAG
UniProt O60656, sequence (whole entry, looked up): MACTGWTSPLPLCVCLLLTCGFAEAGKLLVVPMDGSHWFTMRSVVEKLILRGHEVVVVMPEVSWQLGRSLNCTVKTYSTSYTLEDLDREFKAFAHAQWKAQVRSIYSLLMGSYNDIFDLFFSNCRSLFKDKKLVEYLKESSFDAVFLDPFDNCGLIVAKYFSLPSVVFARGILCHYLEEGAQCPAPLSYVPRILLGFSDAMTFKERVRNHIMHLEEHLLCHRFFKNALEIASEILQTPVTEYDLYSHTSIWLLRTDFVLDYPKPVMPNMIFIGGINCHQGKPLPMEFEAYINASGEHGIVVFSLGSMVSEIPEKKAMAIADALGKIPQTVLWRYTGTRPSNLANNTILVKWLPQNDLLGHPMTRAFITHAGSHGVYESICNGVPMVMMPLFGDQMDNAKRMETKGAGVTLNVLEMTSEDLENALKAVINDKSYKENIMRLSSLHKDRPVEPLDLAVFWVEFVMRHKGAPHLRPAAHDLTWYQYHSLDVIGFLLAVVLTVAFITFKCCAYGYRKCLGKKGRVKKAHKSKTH
UniProt P31513, sequence (whole entry, looked up): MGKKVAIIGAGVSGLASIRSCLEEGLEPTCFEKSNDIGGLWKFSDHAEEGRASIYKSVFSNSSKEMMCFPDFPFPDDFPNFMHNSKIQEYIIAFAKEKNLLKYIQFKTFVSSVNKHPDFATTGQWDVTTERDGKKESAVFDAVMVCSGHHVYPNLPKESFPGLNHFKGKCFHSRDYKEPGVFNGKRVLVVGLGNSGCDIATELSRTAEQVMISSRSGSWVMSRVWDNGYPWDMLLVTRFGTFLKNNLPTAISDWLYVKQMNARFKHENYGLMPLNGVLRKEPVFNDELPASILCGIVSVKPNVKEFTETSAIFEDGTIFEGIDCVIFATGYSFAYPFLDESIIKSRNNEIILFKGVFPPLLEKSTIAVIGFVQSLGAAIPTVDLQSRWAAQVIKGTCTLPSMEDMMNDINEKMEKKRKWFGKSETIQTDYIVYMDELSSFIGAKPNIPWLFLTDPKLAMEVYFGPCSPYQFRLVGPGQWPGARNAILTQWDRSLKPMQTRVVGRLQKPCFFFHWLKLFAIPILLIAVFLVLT

For `B1 (LigI D246A)`, the Km was 116 µM (O=C(O)c1cc(C(=O)O)oc(=O)c1; pH 8.25, 30 °C).
`B2 (KS T527V/T528V)` has a Km of 1.5 µM (C=C1CC[C@@H]2C(C)(C)CCC[C@@]2(C)[C@@H]1CC/C(C)=C/COP(=O)(O)OP(=O)(O)O; pH 7.2, 30 °C, GGPP-derived substrate).
For `B3 (LYS12 D271N)`, the Km was 3.7 µM (O=C(O)CC[C@H](C(=O)O)[C@@H](O)C(=O)O; pH 7.5, 25 °C, potassium acetate 100 mM, substrate as Mg complex, with: NAD+ varied; Mg2+ 10 mM).
`UGT1A9 (Homo sapiens, UniProt O60656)` gave a Km of 213 µM (Oc1ccc([C@H]2COc3cc(O)ccc3C2)cc1; pH 7.4, 37 °C).
The Km of `B4 (ABHD14B)` is reported as 1800 µM (CC(=O)Oc1ccc([N+](=O)[O-])cc1; pH 8, 37 °C).
The Km of `B5 (BshA)` is reported as 54 µM (O=C(O)C[C@H](O)C(=O)O; pH 7.5, 21 °C, with: UDP-GlcNAc 0–4 mM).
`B6 (enzyme)` has a Km of 3.6 µM (O=C(O)c1ccccc1C(=O)O; pH 8, 25 °C, apparent).
For `MCM2-7 (Drosophila melanogaster)`, the Km was 131 µM (Nc1ncnc2c1ncn2[C@@H]1O[C@H](COP(=O)(O)OP(=O)(O)OP(=O)(O)O)[C@@H](O)[C@H]1O; pH 7.6, 30 °C, no DNA, with: ATP 0.03 µM-3 mM, magnesium acetate 10 mM).
`B7 (protein)` has a Km of 96.5 µM (O=C(/C=C/c1ccc(O)cc1)c1c(O)cc(O)cc1O).
`B8 (MCAT R178G)` gave a Km of 32.2 µM (CC(=O)SCCNC(=O)CCNC(=O)[C@H](O)C(C)(C)COP(=O)(O)OP(=O)(O)OC[C@H]1O[C@@H](n2cnc3c(N)ncnc32)[C@H](O)[C@@H]1OP(=O)(O)O; pH 6.8, 20 °C, labelled substrate, with: holo-ACP 20 µM).
For `B9 (protein)`, the Km was 430 µM (O=c1ccn([C@@H]2O[C@H](CO)[C@@H](O)[C@H]2O)c(=O)[nH]1; phosphorolysis, single substrate, with: phosphate).
`protein (Clonorchis sinensis, UniProt H2KTV3)` gave a Km of 0.454 µM (NCCc1ccc(O)c(O)c1; oocytes; pH 7.4, NaCl 96 mM, not purified).
For `FMO3 (Homo sapiens, UniProt P31513)`, the Km was 342 µM (CCN(CC)CCNC(=O)c1ccc(N)cc1; pH 7.4, 37 °C, with: NADPH 2 mM).

Some of these lines once more:
For `B9 (protein)`, the Km was 430 µM (O=c1ccn([C@@H]2O[C@H](CO)[C@@H](O)[C@H]2O)c(=O)[nH]1; phosphorolysis, single substrate, with: phosphate).
